Measured values collected from several papers.
Each line is one published result; not all experiments were run side by side. Values joined by “and” are separate records of one study, mostly repeats; a detail may differ. ± gives the spread as reported. ≈ marks a conversion by molar mass, not a printed value.

Structure (SMILES) | test | test system | setting | scale | endpoint | result
C[C@@H](NC(=O)N1C(=O)[C@H](Cc2ccnc(N)c2)[C@H]1C(=O)O)C1CCCCC1 | UPLC-MS/MS | healthy adult Chinese volunteers, plasma | continuous intravenous infusion, 1.0 mg/kg/h, day 6 of 5-day infusion, mean |  | elimination rate constant | 0.000152 s⁻¹
N#C[C@@]1(c2ccc3c(N)ncnn23)O[C@H](CO)[C@@H](O)[C@H]1O | plasma protein binding | rat plasma | 100 µM |  | unbound fraction | 0.935
CC(C)[C@H](C(=O)Nc1ccc(C(=O)NO)cc1)c1ccccc1 |  | whole blood | 10.0 ng/mL, 3 h, 4 °C, stability on ice |  | measured concentration | 10 ng/mL
O=C(CCCCCCC(=O)Nc1ccc(CC[18F])cc1)NO |  | athymic nu/nu male mice, LNCaP xenograft, lungs | intravenous, 2 h |  | tissue uptake | 1.6 ± 0.4 %ID/g
O=C(N[C@H](Cc1c[nH]c2ccccc12)C(=O)Nc1ccncc1)c1ccc(-c2ccc(F)c(C(F)(F)F)c2)cc1F |  | Swiss Webster mouse, female, brain | oral, 50 mg/kg, 8 h, 20% HPβCD vehicle |  | concentration | 1350 nM
COc1cccc(-c2n[nH]c(SCc3ccccn3)n2)c1OC |  | Sprague-Dawley rats, both sexes | oral dietary, 10 mg/kg/day, day 90, 3 h |  | plasma concentration | 483 ng/mL
CNCc1ccc(-c2[nH]c3cc(F)cc4c3c2CCNC4=O)cc1 |  | human patients | oral, 480 mg twice daily, all grades |  | AST/ALT increased incidence | 33.3%
CCOCC(=O)N1CCC[C@H](C(=O)NCc2nc(-c3ccc(C#N)nc3)cs2)C1 |  | Sprague-Dawley rat, male, plasma | intravenous, 1 mg/kg |  | unbound hepatic CLint | 76 mL/min/kg
O=C(O)CCC(=O)O.[2H]C([2H])([2H])Oc1cc(C)c2[nH]ccc2c1CN1CC[C@@H](C2CC2)C[C@H]1c1ccc(C(=O)O)cc1 |  | healthy Chinese subjects | 100 mg, single ascending dose |  | TEAE urine leukocyte positive | 16.7%
CCn1cc(C(=O)N2CCOCC2)c(=O)c2cc(NC3Cc4ccccc4C3)cnc21 |  | humans, fasted, plasma | oral, 300 mg, single dose, suspension |  | half-life | 5.74 h
CCNC(=O)[C@@H]1CCCN1C(=O)[C@H](CCCNC(=N)N)NC(=O)[C@H](CC(C)C)NC(=O)[C@@H](CC(C)C)NC(=O)[C@H](Cc1ccc(O)cc1)NC(=O)[C@H](CO)NC(=O)[C@H](Cc1c[nH]c2ccccc12)NC(=O)[C@H](Cc1c[nH]cn1)NC(=O)[C@@H]1CCC(=O)N1 |  | healthy premenopausal women, plasma | intramuscular, 3.75 mg monthly depot, day 29, 696 h |  | steady-state concentration | 1.7 ± 1.2 ng/mL
Cc1cc(NC2CCN(C(=O)OC3CCN(C(=O)/C=C/CN(C)C)C3)CC2)n2ncc(C(C)C)c2n1 (stereo not shown) | Phase I dose escalation CTCAE v4.0, item: blood creatinine increased | patients with advanced solid tumours | dose not given, TIW dosing grade 3 or higher |  | patients with adverse event | 0%
O=C1CC[C@H](N2Cc3cc(N4CCN(CC5CCN(c6ccc([C@@H]7c8ccc(O)cc8CC[C@@H]7c7ccccc7)cc6)CC5)CC4)ccc3C2=O)C(=O)N1 | rapid equilibrium dialysis | SD rat blood | 2.5 µM, 6 h |  | unbound fraction in blood | 0.065
Cc1cc(-c2nccc3c2ccn3CC(=O)Nc2ccc(-c3cnccn3)cn2)ccn1 |  | human | 20 mg once daily, multiple ascending dose |  | nervous system disorders | 44.4%
Oc1ccc(/C=C/c2cc(O)cc(O)c2)cc1 |  | rat, azoxymethane-injected, blood at sacrifice | 10 mg/kg |  | glucose | 155 mg/dL and 195 mg/dL and 184 mg/dL
CC(C)=CC[C@@H](O)C1=CC(=O)c2c(O)ccc(O)c2C1=O |  | plasma | 25 ng/mL, 3 d, -80 °C, storage stability |  | measured concentration | 22.3 ± 1.94 ng/mL
Cl.[2H]C([2H])([2H])CC(=O)c1cnc(NC(=O)C2CC2)cc1Nc1cccc(-c2ncn(C([2H])([2H])[2H])n2)c1OC | median | human | oral, 50 mg single dose, fasted, liquid |  | Tmax | 1 h
Cc1nc(-c2ccc(OCC(C)C)c(C#N)c2)sc1C(=O)O |  | KM mouse, chronic hyperuricaemia model | dose not given, day 18 |  | body weight | 32.8 g and 33 g and 37.2 g and 38 g and 41.2 g and 34.6 g
NC(CO)(CO)CCc1ccc(Sc2cccc(OCc3ccccc3)c2)cc1Cl |  | human, supine | oral, 3 mg, 0 to 24 h, alone |  | pulse rate AUEC, median | 1270 h×bpm
C[C@H](CCC(=O)NCC(=O)O)[C@H]1CC[C@H]2[C@@H]3CC[C@@H]4C[C@H](OS(=O)(=O)O)CC[C@]4(C)[C@H]3C[C@H](O)[C@]12C |  | human, plasma | endogenous control diurnal | baseline: daily mean concentration | relative peak deviation | 88.1 ± 11.2%
Cc1cccc(CNC(=O)c2cn(CCNC(=O)c3ccccc3Sc3c([N+](=O)[O-])ncn3C)c3cc4c(cc3c2=O)OCO4)n1 |  | Beagle dog, whole blood | 1 µM, 1.5 h |  | remaining compound | 72.5%
COc1ccc2c(=O)n(C)c(-c3ccccc3)nc2c1 |  | Sprague-Dawley rat, male, abdominal fat | oral, 30 mg/kg, 2 h | baseline: abdominal fat over plasma | tissue/plasma ratio | 22.8

Structure (SMILES) | test | test system | setting | scale | endpoint | result
CN(C(=O)n1cnc(-c2cccnc2)c1)[C@H]1CC[C@H](O)CC1 |  | Wistar rat, midbrain | oral, 10 mg/kg of BIA 10-2474, 24 h, single dose |  | concentration | 18 ± 1.2 ng/g
CCn1ncc2c1-c1cnc(N)c(c1)O[C@H](C)c1cc(F)ccc1-c1nn(C)nc1C2 |  | female athymic nude mice, sample B PDX | oral, 15 mg/kg twice daily for 5.5 days, 1 h |  | unbound plasma concentration | 2000 ± 260 nM
CCN1CCN(Cc2ccc(NC(=O)c3ccc(C)c(NC(=O)c4cncc(-c5cccs5)c4)c3)cc2C(F)(F)F)CC1 |  | C57BL/6 mice, epithelial lining fluid | intraperitoneal, 20 mg/kg |  | dose-normalised AUC | 0.33 kg·µg·h/mL/mg
Cc1ccc(Sc2ccccc2N2CCNCC2)c(C)c1 | item: Nausea | healthy adult men | oral, 5 mg single dose, 10 day |  | participants with TEAE | 0%
O=C(Cc1ccc2ccccc2c1)Nc1cc(C2CCC2)[nH]n1 |  | extracted mouse plasma | 375 ng/mL, 24 h, 4 °C, autosampler stability |  | measured mean concentration | 382 ± 61.4 ng/mL
CCc1cc(C(=O)NC)c2nccc(N3CCc4c(cc(Cn5ccnc5)cc4-c4cn(C)nc4C(F)(F)F)C3=O)c2c1 |  | Sprague Dawley rats | oral, 100 mg/kg twice daily, 7 days |  | mean corpuscular volume | 65.1 ± 1.59 fL
CC(C)CCC[C@@H](C)[C@H]1CC[C@H]2[C@@H]3C(O)CC4=CC(=O)CC[C@]4(C)[C@H]3CC[C@]12C (stereo partly shown) |  | human, plasma | endogenous baseline diurnal | baseline: daily mean concentration | relative peak deviation | 88.4 ± 18.5%
CCOc1c([C@H](C)n2nc(C)c3c(N)ncnc32)cc(Cl)c(F)c1[C@@H]1CNC(=O)C1 | item: QTcF ≤450 ms | previously treated B-cell malignancy | oral, 5 mg once daily, overall population |  | ECG observations | 100%
O=C(Nc1nc2cccc(-c3ccc(CN4CCS(=O)(=O)CC4)cc3)n2n1)C1CC1 | item: ankle fracture | human rheumatoid arthritis patients | oral, 30 mg once daily, 4 weeks, regardless of relatedness |  | treatment-emergent adverse events | 0%
CC(C)(C(=O)N1CCOc2c(C#N)cncc2C1)C(F)F | item: disturbance in attention | human | oral, 20 mg twice daily, 14 days, multiple ascending dose |  | subjects with adverse event | 12.5%
C[C@@H](Nc1cc(F)cc(F)c1)c1cc(C(=O)N(C)C)cc2c(=O)cc(N3CCOCC3)oc12 | item: Hydronephrosis | advanced solid tumour patients | oral, dose not given, dose finding |  | patients discontinuing for AE | 0%
O=C(COc1ccc(Cl)cc1)NC12CC(c3nnc([C@H]4C[C@@H](OC(F)(F)F)C4)o3)(C1)C2 | item: Presyncope | healthy humans, both sexes | oral, 400 mg, single ascending dose | baseline: subjects | treatment-emergent adverse events | 16.7%
C=CC(=O)NC1CCN(c2ncc3ncnc(Nc4ccc(Oc5ccc6c(c5)ncn6C)c(C)c4)c3n2)CC1 | item: total radioactivity | healthy male volunteers, plasma | intravenous, 100 µg, 14C microtracer, geometric mean |  | terminal half-life | 127 h
CC(C)Oc1c(NC(=O)c2ccc(NC(=O)[C@H](CC(N)=O)NC(=O)c3ccc(/N=N/c4ccccc4)cc3)cc2)ccc(C(=O)N/N=C/c2ccc(C(=O)O)s2)c1O | absorbance | DMSO | 40 °C, PSS to ground state relaxation |  | thermal half-life | 6 h
CN1C(=O)[C@@H](NC(=O)c2nnc(Cc3ccccc3)[nH]2)COc2cccnc21 | phase I single ascending dose | human, male and female | oral, 200 mg, fasted |  | participants with any TEAE | 16.7%
CNC(=O)c1ccc(-c2cnc3ncc(Cc4ccc5ncccc5c4)n3n2)cc1F |  | Japanese patients | oral, 400 mg twice daily, any grade |  | ILD patients | 1%
C[C@@H]1CCO[C@H]2Cn3cc(C(=O)NCc4ccc(F)cc4F)c(=O)c(O)c3C(=O)N12 |  | human paediatric patients, weight 6 to under sample A kg, plasma | oral, 4.8 mg granules, 24 h, steady state, geometric mean, population PK post-hoc, N 1 |  | trough concentration (C24) | 252 ng/mL
N#Cc1ccc2c(c1)[C@H]1CCCN(C(=O)c3ccc4[nH]cnc4c3)[C@H]1C2 |  | human | 40 mg, day 15 |  | maximum ACTH level | 17.4 pmol/L
O=C(c1cccnc1-c1ccncc1)N1CCC(O)(Cc2ccccc2)CC1 |  | healthy Japanese adults, plasma | oral, 200 mg twice daily, day 14 |  | AUCtau/dose | 4.3 ng·h/mL/mg
O=[N+]([O-])c1cn2c(n1)OC[C@@H](OCc1ccc(N3CCOCC3)nc1)C2 |  | aqueous buffer | pH 7.4 |  | aqueous solubility | 25.8 µg/mL (≈ 71.4 µM)
CCN1/C(=C/C(C)=O)Sc2ccc(F)cc21 |  | cynomolgus monkey | oral, 30 mg/kg, 24 h post-dose |  | heart rate | 96 ± 13 beats/min

A few entries again:
Structure (SMILES) | test | test system | setting | scale | endpoint | result
COc1cccc(-c2n[nH]c(SCc3ccccn3)n2)c1OC |  | Sprague-Dawley rats, both sexes | oral dietary, 10 mg/kg/day, day 90, 3 h |  | plasma concentration | 483 ng/mL
C[C@@H]1CCO[C@H]2Cn3cc(C(=O)NCc4ccc(F)cc4F)c(=O)c(O)c3C(=O)N12 |  | human paediatric patients, weight 6 to under sample A kg, plasma | oral, 4.8 mg granules, 24 h, steady state, geometric mean, population PK post-hoc, N 1 |  | trough concentration (C24) | 252 ng/mL
NC(CO)(CO)CCc1ccc(Sc2cccc(OCc3ccccc3)c2)cc1Cl |  | human, supine | oral, 3 mg, 0 to 24 h, alone |  | pulse rate AUEC, median | 1270 h×bpm
Cc1cc(NC2CCN(C(=O)OC3CCN(C(=O)/C=C/CN(C)C)C3)CC2)n2ncc(C(C)C)c2n1 (stereo not shown) | Phase I dose escalation CTCAE v4.0, item: blood creatinine increased | patients with advanced solid tumours | dose not given, TIW dosing grade 3 or higher |  | patients with adverse event | 0%
